Measurements gathered from unrelated publications.
Numbered parts are unrelated; each lists some results of a single study. Substitutions count along the parent as printed.

Set 1
Target: Ras GTPase-activating protein-binding protein 1, C-terminal RGG region (G3BP1, Homo sapiens, UniProt Q13283)
Chain of UniProt Q13283 (whole entry, looked up): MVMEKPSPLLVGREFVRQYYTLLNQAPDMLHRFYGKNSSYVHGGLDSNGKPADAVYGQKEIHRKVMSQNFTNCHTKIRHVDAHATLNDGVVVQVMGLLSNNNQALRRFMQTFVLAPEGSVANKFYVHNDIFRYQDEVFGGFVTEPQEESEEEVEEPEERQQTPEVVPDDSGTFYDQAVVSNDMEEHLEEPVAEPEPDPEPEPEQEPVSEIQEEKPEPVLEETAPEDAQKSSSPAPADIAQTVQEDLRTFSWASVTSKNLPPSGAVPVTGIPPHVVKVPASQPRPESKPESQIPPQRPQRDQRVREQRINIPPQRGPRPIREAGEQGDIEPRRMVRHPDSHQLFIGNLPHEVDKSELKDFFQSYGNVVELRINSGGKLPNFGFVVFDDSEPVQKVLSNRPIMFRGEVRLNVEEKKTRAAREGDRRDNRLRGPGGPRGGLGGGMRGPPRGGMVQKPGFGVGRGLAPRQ
Technique: RNA Bind-n-Seq
Form: RNA
Sample: in vitro
Concentration: 1 µM
Setting: whole 134-nt RNA, ends assumed
Together with: 150 mM KCl
Baseline: input library
Direction: higher = stronger binding
All sequences stand within: GGGAGUUCUACAGUCCGACGAUC … UGGAAUUCUCGGGUGUCAAGG
Oligonucleotide | log2 enrichment
AGUCCUGUGCUACACAUCGUAUGUACCGAAUCGGGCCCCCGGCCCCCGGCCCCCGGGAAAGUAUUAUGUUACGCCGUUCGGAUCUGCACU | -1.96
CACAGACAACACGCACCCACACAGACACAGAGGGAAGGGGUUGGGAUGGGGACAGGGUGCACAGCAGGGCGGGGUAGGACGCCAGCCCCU | -0.861
AAGUCCUGUGCUACACAUCGUAUGUACCGAAUCAAAUUUAAAUUUAAAUUUUUAAAAAAGUAUUAUGUUACGCCGUUCGGAUCUGCACUU | -2.21
AGUCCUGUGCUACACAUCGUAUGUACCGAAUCGGUUUUUUUGGUUUGGUUUUUUUGGAAAGUAUUAUGUUACGCCGUUCGGAUCUGCACU | -2.04
UACAUUCUUUACCCCUUGUUUUAAUUUGAACCCCACCAUAUGGAUUUUUUUCCUUAAGAAAAUCUCCUUUUAGGAGAUCAUGGUGUCACA | -0.764
CUGUGCUACACAUCGUAUGUACCGAAUCGGGUUUUUUUGGGGUUUUUUUGGUUUUUUUGGGGAAAGUAUUAUGUUACGCCGUUCGGAUCU | -1.13
UCAAGUCCUGUGCUACACAUCGUAUGUACCGAAUCGGGAGGGAAAAAGGGUGGGAAAGUAUUAUGUUACGCCGUUCGGAUCUGCACUUCC | 1.57
AGUCCUGUGCUACACAUCGUAUGUACCGAAUCGGCCCCCGGGCCCCCGGCCCCCGGGAAAGUAUUAUGUUACGCCGUUCGGAUCUGCACU | -1.78
CCUGUGCUACACAUCGUAUGUACCGAAUCGGGUUUUUUUGGGUUUUUUUGGUUUUUUUGGGAAAGUAUUAUGUUACGCCGUUCGGAUCUG | -1.45
GUCCUGUGCUACACAUCGUAUGUACCGAAUCGGGGAAAAGGGGAAAAGGGGAAAAGGGGAAAGUAUUAUGUUACGCCGUUCGGAUCUGCA | 2.11
GUCCUGUGCUACACAUCGUAUGUACCGAAUCGGUUUUUGGGGUUUUUGGGGUUUUUGGAAAGUAUUAUGUUACGCCGUUCGGAUCUGCAC | -0.678
UCCUGUGCUACACAUCGUAUGUACCGAAUCGGGAAAAAAGGGGAAAAAAGGGAAAAAAGGAAAGUAUUAUGUUACGCCGUUCGGAUCUGC | -1.21
UCCUGUGCUACACAUCGUAUGUACCGAAUCGGAAAAAAGGGGAAAAAAGGAAAAAAGGGGAAAGUAUUAUGUUACGCCGUUCGGAUCUGC | -1.41
GCCACCAUGCCCACCUAGUUUUUGCAUUUUUAGUGGAGGUGUGGUUUCACUGUGUUGGCCAGGCUGGUCUCUUAACUCCUGACCUCAGGU | 0.152

Set 2
Target: ABI1, truncated, D143A, DHFR fusion (Arabidopsis thaliana)
Technique: DHFR PCA, deep sequencing
Sample: yeast
Setting: methotrexate growth selection, single substitutions
Together with: (+)-ABA 17 µM
Baseline: wild-type fitted maximum
Direction: higher = stronger binding
Parent: PYL1, truncated, DHFR fusion (Arabidopsis thaliana); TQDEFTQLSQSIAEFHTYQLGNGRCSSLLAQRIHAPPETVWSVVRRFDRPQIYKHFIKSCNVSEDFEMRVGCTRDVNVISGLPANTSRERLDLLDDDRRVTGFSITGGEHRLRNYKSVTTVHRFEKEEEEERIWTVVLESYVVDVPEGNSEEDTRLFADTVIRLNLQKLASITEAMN
Substitution | relative binding score [%]
L29F | 10.2
E67F | 67.1
L93N | 24.6
E174G | 47.7
R32L | 74.8
H16C | -21.2
E67W | 56.6
V70C | 53.5
I12Q | 11.4
S150E | 38.4
V100L | 54.8
F66Q | 77.4
K126T | 94.9
V142H | 49.8
E14S | 62.5
P36V | 44.8
L166P | 16.7

Set 3
Target: CCNA2, cyclin fold, Cln2 fusion (human)
Technique: yeast growth competition, sequencing
Sample: yeast
Setting: strong parent motif
Baseline: not given
Direction: higher = stronger binding
Parent: BRCA2 docking peptide (human); PSIKRNLLNEFDR
Substitution | normalised enrichment score
L8N | 2.59
I3F | 5.76
E10G | 0.948
S2E | 2.91
N6H | 1.44
N6L | 1.19
R5D | 1.09
R5V | 1.05
D12F | 3.74
N9C | 4.49
D12T | 4.37
E10V | 1.61
S2F | 3.34
F11A | 1.67
R13T | 5.05
N9L | 5.33
L8P | 0.292
K4R | 5.86
L8Q | 3.45
L7V | -0.00588

Set 4
Target: RNA binding protein fox-1 homolog 2, RRM domain, GST-SBP tag (RBFOX2, Homo sapiens, UniProt O43251-10, residues 100-194)
Technique: RNA Bind-n-Seq
Form: RNA
Sample: in vitro
Concentration: 365 nM
Setting: natural RNA segment, single round, ends assumed
Baseline: no-protein control
Direction: higher = stronger binding
All sequences stand within: GGGAGUUCUACAGUCCGACGAUC … UGGAAUUCUCGGGUGCCAA
Residues (chain): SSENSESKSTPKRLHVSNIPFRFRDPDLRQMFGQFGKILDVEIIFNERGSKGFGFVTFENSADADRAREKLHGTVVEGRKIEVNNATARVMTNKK
Oligonucleotide | RBNS enrichment (R)
CGAUGGAAGAAACCUACUUCCCUAUCCUGCCUAUCCUGCCCCUCAACCUCUUCAUUCCUAAUUCCUCCAAGGUACUAUUUCAUAGUUGCUCUGAAUUAAGGAUUUCAGGU | 0.297
UACAUAGUAAUUUUGGUUCUGAAUUUUACAUUAAAUUAUUUGAAUAUAUACAGACCUAAAUUUUAAAAUCUGUACAUAUAUUAUUUUGAUGUAUUAAGAUUGAUAAUAUU | 0.745
AAAUCCAAUUCUAACCUAAGAACUGGGAUUCUUCUGUCAUCUUGUAAACCGUAUAUUGAAAAAAACAGAAUGUCACUAAAUGCAUAUUAAGUCAAGUAUUGGAAAGUAUA | 1.01
AAGAAGCAAUAGUAGCAAUCUUAAAUUUGACUCAUAGGGGAGAUAAGCGUGUGUCUUUUUAACUUAGUCCUAAGGUAAUCCAUUCAGAAGACAGCUUGCCUUUGUGUUCC | 0.88
CUUACCUCUGAUCCACUUAGAGCAAUAACCACUUUUUAAAUGUAAAAUAAAAAGACAAAUGAAAAGGACAUCCUUGUCUUCUGGUAAAUGCCCAAAUGUUGCCCUCUUUU | 0.437
GGAGGAGCACCCCCAGCCUCCCCCAGGCUGCGCCUGCCCGCCCGCCGGUUGGCCGGCUGGCCGGUCCACCCCGUCCCGGCCCCGCGCGUGCCCCCAGCGUGGGGCUAACG | 0.309
UGCCUGAUUUAGCCCUGUGCCUAACAGUUUAAAUCUUAAUGCUAAUGUUAAUUGCUUCCCAGUUGGUUGACCUUAUAAGAAAACACUGUGUGGUAUUUUAAUGUGGUAAA | 0.299
GGCGGCCAAGCACAAACUGGGGGAGAGGAGGCCGCCAGCCCGGAGGCUGCAGCCCAGAAACUCUACCUCAUCCACACUGGUGCAGGGAGCCCUCCUUGAACUGACCUUUG | 0.529
AGCAGUUUGCCUGGUCAGUCAGCUUUUGGGGGUCCAUCAAAGGAGGUUGCUGACCUGACCGUGAGUGCUUCAGUAUCUGGUUUGUGUCAGAACCAGACGCCAACUUUGUA | 0.465
UGUGUGGAGGUGGCGGGAGGGGUCAGUGACUCUGGGGGUCUCCUCAGUGACCCCCAUACCUCAUCAUGAACCCUUGGGUAGCUUGAUUCUGCCUACCAUCCAGGAAAACU | 0.624
UGCAUGCACAACUUGUUUUCCCUUGUAACAUUCAUGAUCUCAUUUACAACUCUGAUUUUAAAACAAAAAAAUCUUUACAACAAGCUAUAUAGGGACAUACCAGAUGUUGC | 1.52
AAAAGUUAAUUUAUGUGACUUGGCAGUUAUUCUAUACAUUUCCUGUCCAUUAAAAAUUUUAAAGGAACAGUUGUGUUUUAUUAUGCUCUAUGUAACCUUUUAGCCUUUAA | 0.56

Set 5
Target: PABPC1L2, full length, GST fusion (mouse, UniProt A0ABA7IW68)
Technique: RNAcompete
Form: RNA
Sample: in vitro
Concentration: 20 nM
Setting: 7-mer, probes averaged, single round
Baseline: mean of 7-mers
Direction: higher = stronger binding
Residues (chain): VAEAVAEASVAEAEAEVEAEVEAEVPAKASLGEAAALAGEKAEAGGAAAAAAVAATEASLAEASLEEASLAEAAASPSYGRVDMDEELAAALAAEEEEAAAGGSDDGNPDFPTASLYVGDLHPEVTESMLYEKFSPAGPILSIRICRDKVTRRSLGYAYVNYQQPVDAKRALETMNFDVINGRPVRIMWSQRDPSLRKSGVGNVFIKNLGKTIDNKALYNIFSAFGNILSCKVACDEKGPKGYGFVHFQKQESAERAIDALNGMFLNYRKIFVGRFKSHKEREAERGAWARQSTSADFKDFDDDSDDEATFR
Oligonucleotide | 7-mer Z-score
AUACGUC | -0.237
CGGUCAU | 0.0243
GACGGUA | -0.0591
GUCACGG | -0.021
CGACCAU | -0.137
CAUUUAU | 0.274
UUUGGCG | -0.295
GGGAUUU | 0.153
GCUACCU | -0.287
CAAACGU | 0.162
CGAACGA | -0.0446
UAUGUUC | -0.389
CGACUUG | -0.166
AGCUGAU | -0.0935
AACGCGG | 0.445
GCUAUCG | -0.182
CUCACUC | -0.282
CGUGAAU | -0.238

Repeated from above (set 1):
Oligonucleotide | log2 enrichment
CCUGUGCUACACAUCGUAUGUACCGAAUCGGGUUUUUUUGGGUUUUUUUGGUUUUUUUGGGAAAGUAUUAUGUUACGCCGUUCGGAUCUG | -1.45
UACAUUCUUUACCCCUUGUUUUAAUUUGAACCCCACCAUAUGGAUUUUUUUCCUUAAGAAAAUCUCCUUUUAGGAGAUCAUGGUGUCACA | -0.764
AAGUCCUGUGCUACACAUCGUAUGUACCGAAUCAAAUUUAAAUUUAAAUUUUUAAAAAAGUAUUAUGUUACGCCGUUCGGAUCUGCACUU | -2.21
AGUCCUGUGCUACACAUCGUAUGUACCGAAUCGGCCCCCGGGCCCCCGGCCCCCGGGAAAGUAUUAUGUUACGCCGUUCGGAUCUGCACU | -1.78
CUGUGCUACACAUCGUAUGUACCGAAUCGGGUUUUUUUGGGGUUUUUUUGGUUUUUUUGGGGAAAGUAUUAUGUUACGCCGUUCGGAUCU | -1.13
GCCACCAUGCCCACCUAGUUUUUGCAUUUUUAGUGGAGGUGUGGUUUCACUGUGUUGGCCAGGCUGGUCUCUUAACUCCUGACCUCAGGU | 0.152
UCCUGUGCUACACAUCGUAUGUACCGAAUCGGAAAAAAGGGGAAAAAAGGAAAAAAGGGGAAAGUAUUAUGUUACGCCGUUCGGAUCUGC | -1.41
